Published values collected from several papers.
A part holds a random share of what one study measured.

Series 1 — method: protein-binding microarray; form: double-stranded DNA, one strand shown; medium: in vitro; concentration: 940 nM top; setting: 60-bp whole probe; together with: salmon DNA 0.4 mg/ml; baseline: random background probes; reading: higher = stronger binding; measurement: fitted relative affinity; constant ends, left off below: GCCTAGCAC … GTCTTGATTCGCTTGACGCTGCTG
Target: Interferon regulatory factor 5, full length, phosphomimetic (IRF5, Homo sapiens, UniProt Q13568-2, residues 1-514, S451D/S453D/S456D/S462D)
TTAGCACTGCTTCTCCTTTAGTGCTAG: 0.0188 z-score
GACGGTATCCTTCTCCTGATGTGCTAG: 0.443 z-score
TTAGATCTCCTTTTCCTTTAGTGCTAG: 1.01 z-score
GAAGGACTGGACTTTCGGGACGTGCTA: 0.176 z-score
GACGGTAACGGACTGGGGACGTGCTAG: -0.528 z-score
TTAGGTTTCGGTTCCGGTGAGTGCTAG: 15.1 z-score
GACGGTTTCGGTTCCGGCACGTGCTAG: 14 z-score
TTTTTTATCAATCATTTTAGTGTGCTA: 1.09 z-score
GACGGTATCGACTTTCTGGACGTGCTA: 4.08 z-score
TTAGTACTGGGGACTGGATTAGTGCTA: 0.309 z-score
ATAGGTATCGACACTGGGTTAGTGCTA: 4.05 z-score
AGGAATTTCCCACTTTCAGTGTGCTAG: 0.658 z-score
TTATGTATCGGGTATCGGTTAGTGCTA: 4.47 z-score
TTAGGTATCATTATCCTTTAGTGCTAG: 3.97 z-score
TTGGATCTCAGACTGGATTAGTGCTAG: -0.581 z-score
GACGGTTTCGAGTATCGGGACGTGCTA: 7.58 z-score
TCAGGTCTCGCTTCATCACTGTGCTAG: 1.89 z-score
GACGATATCAGTATCGACACGTGCTAG: 2.45 z-score
TTAAGTCTCGGTCTCGGTTAGTGCTAG: 7.31 z-score
GACGGTTTCGGGACTCGGGACGTGCTA: 6.42 z-score

Series 2 — method: RNA Bind-n-Seq; form: RNA; medium: in vitro; concentration: 365 nM; baseline: no-protein control; reading: higher = stronger binding; measurement: RBNS enrichment (R)
Target: RNA binding protein fox-1 homolog 2, RRM domain, GST-SBP tag (RBFOX2, Homo sapiens, UniProt O43251-10, residues 100-194)
Setting: natural RNA segment, single round, ends assumed
Constant ends, left off below: GGGAGUUCUACAGUCCGACGAUC … UGGAAUUCUCGGGUGCCAA
Residues (chain): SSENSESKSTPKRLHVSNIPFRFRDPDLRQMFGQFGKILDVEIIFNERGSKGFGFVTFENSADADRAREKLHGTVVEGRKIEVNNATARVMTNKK
GUUUCUCUACUGGUCAGGAUGCUUUUCUCAUAAGGGUCGACUUUUUUCACCAGUCACAUAAACACUAUGUGGACUGGCAGUGGUUCUCUGCUCCUCCACAUCCUGGAGCG: 0.268
GGCUGCAUGGAUUCUCACAUCAGAGUUCUCUGGCCCUAGAAAGGCUUAGAAAAGGCGUAAGGGAACUCAUAAAGGCUAGCAGCAUGCGGUAUUUUAACUUUCUGCCUCGG: 8.57
AUACUUUUUAGAAAAGGAGCAUCUGGUUAUGCAUAAAGCAGAGCUAAAACUAAAUUUCUUUCAUGUCCUCCCUACUUCCUCAGUGUCAAUCAGAUUAAAGUGUGUAAUCC: 0.594
AUAUAUAGAGAGAAUUGGUCUCGUUUAAACACGCCGAACCUCACCAUAUGGAGCCAGACAUUGGGACGCACGCAUGUGAUUGUGUGUGCACGCAUGUGUGUGUGUGCACG: 1.92
GAUUUGCCUUCUGUCUUAUGCCAAACACCCCUUUCUAAGAGCUGUCCCCGCUUAGUUUUAGAAGUACUAGGGGUUUUCAUACUUAUUUUAUAGAACACCCAUUUAUAUUU: 0.374
AUUUCUUACUCUUCUGUGUUUUAACAAAAGUUUAUAAAACAAAAUAAAUGGCGCAUAUGUUUUCUAAGUCCUUGGAUAAGUAUCUUUUCUUUCAGGUAUCAGAAAUAAGA: 0.484
CCGAUUUUUGAAUGUGAUUUUAAAGAGUGGAAAAUGAGACUAUGCGUUUUUAUAAAAAAUGGUGCCUACUCCUCGCUGUCUCAGACUCUUUGUGCCUGGUGACUAUUUUU: 0.902
GACAUCCUUGUCAGCCCCAGUUCCUGUGACACCUACCCCUUCAUGCUCUUUCCUCCUUCCCCCUGGGCUGACCAAAAAUGUGCUAUCUACUGUGAGCCCCUUUCCCAAGA: 0.895
GAUGUUGGGAAUGGACUGGGUUUUAAAAGGGAGCUUGAAGAGGGAAUGUUUGACAGUCACAGAAGGUUCCUGCAGCAGAUGCCUCUUUUAGCCAUUUCUCAUUUUUUUCC: 0.584
AGCUAAUGACUGGUUAGAAGAUUGACAAACUAACCAAAAUUUUACACACUCCGGUUAUGUGUGUGAAAGGUUAUAAAAGGAAUGGCCGGGUGCGGUGGCUCACCCCUGUA: 0.415
AGCCUACAGCAGAUUAUCAGCUCGGUGACUUUUCUUUCUGCCACCAUUUAGGUGAUGGUGUUUGAUUCAGAGAUGGCUGAAUUUCUAUUCUUAGCUUAUUGUGACUGUUU: 0.237
AGGAUCAUAUAAAAUAUGAAGAAAUAGCCAUAUUAAAUUUUUUGCUGUCAUUUGCCUCCGCAACAAAGCGAGUGUAAGUGUCUAAUGCUGAAGCUAGAGUGAACUCAUGU: 0.299

Series 3 — method: RNA Bind-n-Seq; form: RNA; medium: in vitro; concentration: 1 µM; setting: whole 134-nt RNA, ends assumed; together with: 150 mM KCl; baseline: input library; reading: higher = stronger binding; measurement: log2 enrichment
Target: Ras GTPase-activating protein-binding protein 1, RRM domain (G3BP1, Homo sapiens, UniProt Q13283)
Sequence of UniProt Q13283 (whole entry, looked up): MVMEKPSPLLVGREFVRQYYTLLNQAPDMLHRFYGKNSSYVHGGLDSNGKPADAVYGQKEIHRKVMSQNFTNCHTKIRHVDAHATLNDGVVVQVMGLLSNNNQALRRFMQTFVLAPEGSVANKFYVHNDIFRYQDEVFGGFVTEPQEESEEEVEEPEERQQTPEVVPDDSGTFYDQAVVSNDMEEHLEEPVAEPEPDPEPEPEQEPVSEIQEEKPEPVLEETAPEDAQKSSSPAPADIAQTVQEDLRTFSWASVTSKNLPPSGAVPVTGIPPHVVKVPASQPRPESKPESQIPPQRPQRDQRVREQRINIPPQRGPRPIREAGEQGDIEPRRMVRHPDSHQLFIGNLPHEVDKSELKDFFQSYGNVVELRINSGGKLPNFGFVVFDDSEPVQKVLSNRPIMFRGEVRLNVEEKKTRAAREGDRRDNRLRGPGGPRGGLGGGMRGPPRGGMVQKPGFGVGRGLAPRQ
Constant ends, left off below: GGGAGUUCUACAGUCCGACGAUC … UGGAAUUCUCGGGUGUCAAGG
UCCUGUGCUACACAUCGUAUGUACCGAAUCAAACCCAAAUUUUUUUAAACCCCCCCAAAAAAGUAUUAUGUUACGCCGUUCGGAUCUGCA: -0.564
ACCAUGCAGGUGGGCAUCUUUGGGAAGUGGGGCAAGGGGGGGAUAAAAAGGGGGGUAACACUUUGGGAACAGGUGGUCCCAGGUCGUUUC: -0.323
UGGCGCUGGUGGCAUGCGGGGAGGAAGAGGUGGCCUCAUGGAUCGUGGUGGUCCCGGUGGAAUGUUCAGAGGUGGCCGUGGUGGAGACAG: 0.355
UAAUUGUGAUCUACAUUUUAAAAUAUCAAGAGAUCGUCUCAGUGCUUCUUCCCUUACAAUGGAGAGUUUUGCUUUUCUUUGGGCUGGAGG: -0.362
UGGCCUUAUCACUCCUGGAGGCUUUUCAUCAGUGCCUGCUGGAAUGGAGACCCCUGAACUCAUUGAGCUGAGGAAGAAGAAGAUUGAGGA: -0.394
UGUGCUACACAUCGUAUGUACCGAAUCGGCCCCCCCGGGGCCCCCCCGGGGCCCCCCCGGGGAAAGUAUUAUGUUACGCCGUUCGGAUCU: -0.64
CACAGACAACACGCACCCACACAGACACAGAGGGAAGGGGUUGGGAUGGGGACAGGGUGCACAGCAGAGCGGGGUAGGACCCCAGCCCCU: -0.21
CACAGACAACACGCACCCACACAGACACAGAGGGAAGGGGUUGGGAUGGGGGCAGGGUGCACAGCAGGGCGGGGUAGGACCCCAGCCCCU: 0.353
AGUCCUGUGCUACACAUCGUAUGUACCGAAUCGGGGCCCCGGCCCCGGGGCCCCGGGGAAAGUAUUAUGUUACGCCGUUCGGAUCUGCAC: -1.03
CUGUGCUACACAUCGUAUGUACCGAAUCGGGGCCCCCCCGGCCCCCCCGGGCCCCCCCGGGAAAGUAUUAUGUUACGCCGUUCGGAUCUG: -0.661
CUCAAGUCCUGUGCUACACAUCGUAUGUACCGAAUCGGGUUGGGGUUGGGUUGGAAAGUAUUAUGUUACGCCGUUCGGAUCUGCACUUCC: -0.208
CCUCAAGUCCUGUGCUACACAUCGUAUGUACCGAAUCGGGGAGGAGGGAGGGAAAGUAUUAUGUUACGCCGUUCGGAUCUGCACUUCCAG: 0.0218
CCUGUGCUACACAUCGUAUGUACCGAAUCGGAAAAAAAGGAAAAAAAGGAAAAAAAGGGGAAAGUAUUAUGUUACGCCGUUCGGAUCUGC: 0.094
CUGUGCUACACAUCGUAUGUACCGAAUCGGGCCCCCCCGGGGCCCCCCCGGGCCCCCCCGGAAAGUAUUAUGUUACGCCGUUCGGAUCUG: -0.605

Series 4 — method: protein binding microarray; form: double-stranded DNA, one strand shown; medium: in vitro; concentration: not given; baseline: not given; reading: higher = stronger binding; measurement: E-score
Target: Histone acetyltransferase KAT6A, winged helix 2, GST fusion (KAT6A, Homo sapiens, UniProt Q92794, residues 85-181)
Setting: 8-mer, flanks averaged, mean of 2 arrays, mostly near background
Construct (chain): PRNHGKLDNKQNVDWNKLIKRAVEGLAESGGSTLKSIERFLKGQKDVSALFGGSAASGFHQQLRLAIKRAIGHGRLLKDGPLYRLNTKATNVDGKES
CCGGCAGC: 0.144
CCCAGAAC: 0.0152
TTACCGAA: -0.137
GTTAACGA: -0.077
TCTCGCCA: 0.00311
ACCGTCGG: 0.0753
CCGTGCAC: -0.00217
CACATCTA: -0.0998
ATTGATTG: -0.024
CGAATCGC: 0.132
ACTAAAAC: -0.0711
ATGGTCAA: 0.0138
TCGCCTAA: -0.00924
GTGTCACA: -0.024
AAGGATCG: -0.138
ACTCGAGT: 0.0766
GAAGCGTA: 0.00321
ATGGGCCA: 0.0469
CCTTACGA: -0.0595
TACCTATA: -0.319
AGTTGAGC: -0.0912
AGTCCGAG: 0.169
ATTGTTGA: 0.0544
ATTGAAAG: 0.122
GCAATTGA: 0.0638

Series 5 — method: RNAcompete; form: RNA; medium: in vitro; concentration: 20 nM; setting: 7-mer, probes averaged, single round; baseline: mean of 7-mers; reading: higher = stronger binding; measurement: 7-mer Z-score
Target: PABPC1L2, full length, GST fusion (mouse, UniProt A0ABA7IW68)
CGAGUUA: -0.199
AUCACAG: -0.199
ACUUACA: 0.00617
GCCUUGC: -0.36
UCGAUGG: -0.0228
AUGGGCC: 0.0895
AUCCUGC: -0.425
UCGUGUU: -0.51
ACAGAGU: -0.0319
UGCGAGU: -0.289
GUAUUUG: -0.34
CGCCCCC: -0.508
UUGUGGC: -0.184
CAGUCUU: -0.364
CUCGUUC: -0.545
UACGUUU: -0.367

Some of these lines once more (series 3):
CACAGACAACACGCACCCACACAGACACAGAGGGAAGGGGUUGGGAUGGGGGCAGGGUGCACAGCAGGGCGGGGUAGGACCCCAGCCCCU: 0.353
CCUGUGCUACACAUCGUAUGUACCGAAUCGGAAAAAAAGGAAAAAAAGGAAAAAAAGGGGAAAGUAUUAUGUUACGCCGUUCGGAUCUGC: 0.094
CCUCAAGUCCUGUGCUACACAUCGUAUGUACCGAAUCGGGGAGGAGGGAGGGAAAGUAUUAUGUUACGCCGUUCGGAUCUGCACUUCCAG: 0.0218
CACAGACAACACGCACCCACACAGACACAGAGGGAAGGGGUUGGGAUGGGGACAGGGUGCACAGCAGAGCGGGGUAGGACCCCAGCCCCU: -0.21
ACCAUGCAGGUGGGCAUCUUUGGGAAGUGGGGCAAGGGGGGGAUAAAAAGGGGGGUAACACUUUGGGAACAGGUGGUCCCAGGUCGUUUC: -0.323
CUCAAGUCCUGUGCUACACAUCGUAUGUACCGAAUCGGGUUGGGGUUGGGUUGGAAAGUAUUAUGUUACGCCGUUCGGAUCUGCACUUCC: -0.208
UGGCGCUGGUGGCAUGCGGGGAGGAAGAGGUGGCCUCAUGGAUCGUGGUGGUCCCGGUGGAAUGUUCAGAGGUGGCCGUGGUGGAGACAG: 0.355
UCCUGUGCUACACAUCGUAUGUACCGAAUCAAACCCAAAUUUUUUUAAACCCCCCCAAAAAAGUAUUAUGUUACGCCGUUCGGAUCUGCA: -0.564
AGUCCUGUGCUACACAUCGUAUGUACCGAAUCGGGGCCCCGGCCCCGGGGCCCCGGGGAAAGUAUUAUGUUACGCCGUUCGGAUCUGCAC: -1.03
CUGUGCUACACAUCGUAUGUACCGAAUCGGGGCCCCCCCGGCCCCCCCGGGCCCCCCCGGGAAAGUAUUAUGUUACGCCGUUCGGAUCUG: -0.661
CUGUGCUACACAUCGUAUGUACCGAAUCGGGCCCCCCCGGGGCCCCCCCGGGCCCCCCCGGAAAGUAUUAUGUUACGCCGUUCGGAUCUG: -0.605
UGGCCUUAUCACUCCUGGAGGCUUUUCAUCAGUGCCUGCUGGAAUGGAGACCCCUGAACUCAUUGAGCUGAGGAAGAAGAAGAUUGAGGA: -0.394
UAAUUGUGAUCUACAUUUUAAAAUAUCAAGAGAUCGUCUCAGUGCUUCUUCCCUUACAAUGGAGAGUUUUGCUUUUCUUUGGGCUGGAGG: -0.362
UGUGCUACACAUCGUAUGUACCGAAUCGGCCCCCCCGGGGCCCCCCCGGGGCCCCCCCGGGGAAAGUAUUAUGUUACGCCGUUCGGAUCU: -0.64
